Measurements collected from several papers.
Parts stem from different laboratories: compare values within a part only.

Study 1
Target: Interferon regulatory factor 5, full length, phosphomimetic (IRF5, Homo sapiens, UniProt Q13568-2, residues 1-514, K96S/S451D/S453D/S456D/S462D)
Method: protein-binding microarray
Molecule type: double-stranded DNA, one strand shown
Matrix: in vitro
Concentration: 250 nM
Setting: 60-bp whole probe
Added: salmon DNA 0.4 mg/ml
Baseline: random background probes
Direction: higher = stronger binding
Constant ends, left off below: GCCTAGCAC … GTCTTGATTCGCTTGACGCTGCTG
| Sequence | log fluorescence [z-score] |
| --- | --- |
| TTAGAACTGTGGTTTCGATTAGTGCTA | 7.58 |
| GTCGGACTGGGACTGGGGACGTGCTAG | -0.494 |
| TCATATATATATTGTTAGACTGTGCTA | 0.803 |
| ATAGGTTTCGGTTTCGGTTAGTGCTAG | 12.1 |
| GACGATATCAGACTGTAGACGTGCTAG | 0.38 |
| GACGATATCGGGTTTCGATACGTGCTA | 7.23 |
| GGTCCTTTCTGCCTCAGAGGGTGCTAG | 1.64 |
| TCAGTCATCGATTTCTTACTGTGCTAG | 0.577 |
| GGGCCGAGGCTGTGGCCACCGTGCTAG | -1.24 |
| GACGATTTCGGGTTTCGAGCCGTGCTA | 3.99 |
| TCACCTTTACTTTCTTTACTGTGCTAG | 2.58 |
| GACGATTGCAGTCTCGAGACGTGCTAG | 0.152 |
| TTAGAACTGACTCTCGATTAGTGCTAG | 0.668 |
| TCAGGACTGCTACTGCTTTAGTGCTAG | -0.402 |
| TCATCTAGGTTTTCTGGAACTGTGCTA | 0.0789 |
| TTAGATCTGGGGACTGGATTAGTGCTA | -0.44 |
| TTAGGACTGGGCTATCGGTTAGTGCTA | 2.22 |
| GACGGTATCCTTATCCTGATGTGCTAG | 0.106 |
| CACCTTCTTCATCAAGGACAGTGCTAG | 0.391 |
| CTAGGACTGGGGTTTCGGTTAGTGCTA | 6.68 |
| TCACCTTTGTTTTTTTCACTGTGCTAG | 1.6 |
| TTAGGTGTCGGTATCGGTTAGTGCTAG | 5.1 |

Study 2
Target: RING finger protein unkempt homolog, zinc fingers 1-6, GST-SBP tag (UNK, Homo sapiens, UniProt Q9C0B0, residues 30-357)
Chain of UniProt Q9C0B0 (30-357, looked up): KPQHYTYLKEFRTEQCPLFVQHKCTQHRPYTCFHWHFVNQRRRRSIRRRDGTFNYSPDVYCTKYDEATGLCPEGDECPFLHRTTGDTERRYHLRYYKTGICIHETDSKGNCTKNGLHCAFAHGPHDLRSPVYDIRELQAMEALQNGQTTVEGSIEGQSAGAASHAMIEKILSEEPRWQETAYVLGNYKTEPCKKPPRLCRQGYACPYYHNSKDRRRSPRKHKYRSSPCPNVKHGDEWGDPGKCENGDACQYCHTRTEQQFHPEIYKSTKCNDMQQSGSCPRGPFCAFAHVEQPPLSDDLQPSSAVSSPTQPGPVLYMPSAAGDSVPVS
Method: RNA Bind-n-Seq
Molecule type: RNA
Matrix: in vitro
Concentration: not given
Setting: RNA with constant flanks, human-mouse chimeric sites, ends assumed
Baseline: input RNA pool
Direction: higher = stronger binding
Constant ends, left off below: GGGAGUUCUACAGUCCGACGAUC … CAACAGAGGAUUGAGCAUCA
| Sequence | bound/input enrichment [ratio] |
| --- | --- |
| UCUUAACUUAUUCAUUUAACUUAUUUUUAUAGCUAGAUAAAUAUUGUUAGUCUUAGAGAGUAGUUCACAUCUUUACAGAAGCAUGCCCUCCCUGUCCAUUUGUCUUAUAACAUGACCCAG | 5.35 |
| UCUUUAAAAAAAAAAUUACCUUUUCUGCAUAUUAUAGCCCUCCCAUAGAUCCACGUUCAAGCUCAAAGAGCAAAGGCUUUGCACGGAUCUGAUGAUGCUGAUGAAGAAAGAUUUCUGAGA | 1.08 |
| UCUUUAAAAAAAAAAUUACAGGAAAAUCAUAUUAUAGCCCUCCCAUAGAUCCACGUUCAAGCUCAAAGAGCAAAGGCUUUGCACGGAGCUCAAACAUCUGAUGAAGAAAGAUUUCUGAGA | 2.96 |
| UCUUUGUGUAACUUAUCUGUAAAAGGUUCCCCCCCCCACUGUCAAAAAAAUAUGCAUGUAUAGUAAUUAGGACUUCAUUCCUCCAUGUUUUCUUCCCUUAUCUUACUGUCAUUGUCCUUA | 2.34 |
| AAACAUCUGUCUUUAAGCAUUCCAAGCGAGAAUGCUGAAAUAGUCAUUGUUGCCCAUGUGCCUUCUGACUGAGCUUUAAUGCUGUUCCAUGUUACAUCUUUCCUUCACUCCAGAAUUGUU | 0.184 |
| CCUGCUCAGAUCACCAUGAAAGUAAUCCAAGGCCUAUAUAGUGGGGUCACCACAGUGGAACUGGACACCCUGGCUGCUGAGACAGCCGCGACCUUGACUACUAAGCACCCUGACUAUGCC | 0.151 |
| GUGCCCUUCUCGCUGCUGCGGAGCCCGAGCUGGGAACCAUUCCGGGACUGGUACCCUCCGCAUAGCCGCCUCUUCGAUCAAGCUUUCGGGGUGCCCCGGCUGCCGGAUGAGUGGUCGCAG | 0.0402 |
| UCAAGGGGGCACUGCAGAGCCAUGCCUUUCCUUGACAUCCAGAAAAGGCUGGGCAUCAGCCUGGACCGGCACUUUAUGUUCCUAAGCGCAGAACAGCCCUAUAAGAACGCCGCUCGGUGC | 0.0463 |
| UGGCGCCUGCGCUCCCCGUUUUUAAAUGUAUUUUUAUUUUUAUAAGAUACAUGUAUUUACAAUUGAGCUUUUGUUACAUAAUGCUGAAAUGCUACUGGAGAUUAUGAAAAAUGUUUCAAU | 0.141 |
| UAAAUUAGGGCUGCCGUUUUCUGUUUCGCCCUGAGCUGCGGAAAGCCAGAAGAUUUUAUCUAGCUUAUACAAGGCUGCUGGAGCUUGCUCUUUUUUUCCACGAGGGUGUUUUUGGCUGCA | 0.747 |
| UUCAAAGAAAAGGGCAGCUGUGUCAUUUCAUAAGUAACUCUGGGGGAGGGAAAUUCUAACUAGUUUGUUAAUUUUCCCCCAAAUGAAGCCAAAGUGUGUGUUGAAGAACUGAGAAAAAAU | 0.862 |

Study 3
Target: RNA binding protein fox-1 homolog 2, RRM domain, GST-SBP tag (RBFOX2, Homo sapiens, UniProt O43251-10, residues 100-194)
Method: RNA Bind-n-Seq
Molecule type: RNA
Matrix: in vitro
Concentration: 365 nM
Setting: natural RNA segment, single round, ends assumed
Baseline: no-protein control
Direction: higher = stronger binding
Constant ends, left off below: GGGAGUUCUACAGUCCGACGAUC … UGGAAUUCUCGGGUGCCAA
Target sequence (chain): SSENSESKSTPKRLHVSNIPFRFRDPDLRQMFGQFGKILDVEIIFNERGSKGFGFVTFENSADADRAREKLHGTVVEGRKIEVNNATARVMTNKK
| Sequence | RBNS enrichment (R) |
| --- | --- |
| GUGGGGGGGUAUCCAGAAUUGGUUGUAAAUACUUUGCAUAUUGUCUGAUUAAACACAAACAGACCUCAGAAUCUGAUCAACAGUUUAUUGAACAUCUACUGUGUGCUGGA | 0.632 |
| CCGACUGAAGCCAGUGUCAGGGCACCACAUACUCCUGGGGCCAGUCUACAGGAAAGAGAUGUUCUGCAAACAAGGGUGGAUGCCUGCAGUAGAGGUCAGAGCUGGUUACC | 1.05 |
| GGAGAUGAGUGUUGAGGCUGACGACCUCCCAGAGGCAAUCUCUGGAUCUGGAACUUUGGGCAUCAUCGGAGGACCGGCUCUGAGCACGCCUCCGCCUCAGCGCACGCCUC | 0.241 |
| GUACCUGCAAGGCAGGUGAGGGCUCUAGCAAGCCCAUGAAGUUCUCAGUGAGCCUCAUUCCCUAGAGCUGAACCUCCACUGCAGGCCCCAAAUCUGAGAUCACAUGAUCU | 0.237 |
| UUGCCUACACUUUCUAUGAAUAACAAGUCAUUUCUGGUUUACACUGUCUUUUUAGAGGAAAAGGACUCUGUAGAACAGAUAUUAUAUUUAUACUUUGUUCCUCCUGCCCA | 1.14 |
| AUUCCCACCCACGACUCACAGGCAUUCCUCCCACAGCCCUUUCAUUUCCUCCCCACCCCACUCCCCAAAUACAGAGGUCUGCUUUGAAGCGGAGACCAUUUCCAGGCCUU | 1.1 |
| AUGGAAGGCUACUAGGAGCCACUACACUAACCUUUCUUCAUGCAUAAAUCCAAUGAGUACUACCCCACCCAUCUUGAUGAAUAUCAAUAUCUUCAGGACUGCAAUCAUUC | 0.385 |
| AAAUGUGUGCUUUAUAGUGUUUACUAAAGUGACAAGAAAAUAUACCAUUUGACACACUAUAGAUUCCAAACAUAACGUUGCACCAAAUAGAAAUGUAUAUUUUAUUAUGC | 0.356 |
| UCUGUAUGCACUGAAAAACGUCGGGUUCUGGGUCUACAAAGCCCCUGCUGCCUGUGUUUGAGGUCUGGAAGGGAGAUUUGAGGAAAGAGAGAGAGAGAGAGAGAGAGAGA | 1.29 |
| GCCUCUGAGAGCAUCAGGCCUAGAGGCCUGACUGCCAAGCCAUGGGUAGCCUGGGUGUAAAACCUGGAGAUGGUGGAUGAUCCCCACGCCACAGCCCUUUUGUCUCUGCA | 0.753 |
| AAAAUGCCUCCAAACAUUUUUCUGUACUCAUACUUAGAUUCACAAUGGUUGUGUAUCUCUAUAAUGUGAAAUAUUUUUUUGUGGUGAUAAAAAGAGGGCCAAGGAGGUAU | 0.599 |
| UUUUCAAAGUAGAGCGUGAGCAUGUAUUUUUAGUGGGAGAGCUCUGAUAGUUGUUGGGAAUAUAUAAUUUACUGGACCUCAGCCCAAAUCAAGAUGCUUAAAAUUGUACU | 1.04 |

Study 4
Target: Ras GTPase-activating protein-binding protein 1, C-terminal RGG region (G3BP1, Homo sapiens, UniProt Q13283)
Chain of UniProt Q13283 (whole entry, looked up): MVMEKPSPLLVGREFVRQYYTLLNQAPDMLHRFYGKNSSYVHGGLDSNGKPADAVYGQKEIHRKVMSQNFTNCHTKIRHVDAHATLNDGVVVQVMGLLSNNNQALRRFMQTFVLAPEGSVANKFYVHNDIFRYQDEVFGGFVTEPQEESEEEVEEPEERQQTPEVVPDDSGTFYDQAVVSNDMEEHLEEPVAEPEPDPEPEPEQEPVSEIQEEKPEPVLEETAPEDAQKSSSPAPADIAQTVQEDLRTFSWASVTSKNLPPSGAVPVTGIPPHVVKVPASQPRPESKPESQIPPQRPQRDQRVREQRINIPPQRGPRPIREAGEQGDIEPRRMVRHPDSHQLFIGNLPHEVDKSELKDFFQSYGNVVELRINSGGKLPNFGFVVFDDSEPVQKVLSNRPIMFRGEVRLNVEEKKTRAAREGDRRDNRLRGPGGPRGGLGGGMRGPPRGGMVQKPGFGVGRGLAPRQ
Method: RNA Bind-n-Seq
Molecule type: RNA
Matrix: in vitro
Concentration: 1 µM
Setting: whole 134-nt RNA, ends assumed
Added: 150 mM KCl
Baseline: input library
Direction: higher = stronger binding
Constant ends, left off below: GGGAGUUCUACAGUCCGACGAUC … UGGAAUUCUCGGGUGUCAAGG
| Sequence | log2 enrichment |
| --- | --- |
| UGGGAGGUGGAUUUUGUUUAAUUUUUUAGCUCAUUUCCAGGGGUGGGAAUUUUUUUUUAAUAUGUGUCAUGAAUAAAGUUGUUUUUGAAA | 1.99 |
| AAGUCCUGUGCUACACAUCGUAUGUACCGAAUCGGGAAAAAAAGGGAAAGGGAGGGAAAGUAUUAUGUUACGCCGUUCGGAUCUGCACUU | 1.28 |
| AAGUCCUGUGCUACACAUCGUAUGUACCGAAUCGGCCCCGGGGCCCCGGCCCCGGGAAAGUAUUAUGUUACGCCGUUCGGAUCUGCACUU | -2.46 |
| UCCUGUGCUACACAUCGUAUGUACCGAAUCAAAUUUAAACCCCCCCAAAUUUUUUUAAAAAAGUAUUAUGUUACGCCGUUCGGAUCUGCA | -0.119 |
| UUCCCUCUGUUUUAUUUUUCCCCCGUGUGUCCCUACUAUGGUCAGAAAGCCUGUUGUGUCCACCAUCUCCAAAGGAGGUUACCUGCAGGG | -0.17 |
| CUGUGCUACACAUCGUAUGUACCGAAUCGGGCCCCCCCGGGGCCCCCCCGGGCCCCCCCGGGAAAGUAUUAUGUUACGCCGUUCGGAUCU | -2.3 |
| CUCAAGUCCUGUGCUACACAUCGUAUGUACCGAAUCGGGAAGGGAAGGGAAGGGAAAGUAUUAUGUUACGCCGUUCGGAUCUGCACUUCC | 2.95 |
| UGGGAGGUGUAUUUUGUUUAUUUUUUUAGCUCAUUUCCAGGGGUGGGAAUUUUUUUUUAAUAUGUGUCAUGAAUAAAGUUGUUUUUGAAA | 2.76 |
| UGAAGACUAUGAGACUGCUCUAUCAGGAAAGGAAGCCCUUUCGGCUGCGCUGCGCUCACAAAACCUCACCAAGAGUACAGAGAACCACAG | -0.123 |
| UGGCCCUGGUGGCAUGCGGGGAGGAAGAGGUGGCCUCAUGGAUCGUGGUGGUCCCGGUGGAAUGUACAGAGGUGGCCGUGGUGGAGACAG | 2.8 |
| CAAGUCCUGUGCUACACAUCGUAUGUACCGAAUCGGGCCCGGCCCGGGCCCGGGGAAAGUAUUAUGUUACGCCGUUCGGAUCUGCACUUC | -2.18 |
| UCAAGUCCUGUGCUACACAUCGUAUGUACCGAAUCGGUUUUGGUUUUGGUUUUGGAAAGUAUUAUGUUACGCCGUUCGGAUCUGCACUUC | -1.45 |
| CAAGUCCUGUGCUACACAUCGUAUGUACCGAAUCGGGGAAAGGGAAAGGAAAGGGAAAGUAUUAUGUUACGCCGUUCGGAUCUGCACUUC | -1.15 |
| UGGGAGGUGGAUUUUGUUUAUUUUUUUAGCUCAUUUCCAGGGGUGGGAAUUUUUUUUUGAUAUGUGUCAUGAAUAAAGUUGUUUUUGAAA | 3.33 |
